Published values collected from several papers.
Parts stem from different laboratories: compare values within a part only. Changes are numbered by the printed parent chain.

Sample 1
Target: Fragile X messenger ribonucleoprotein 1, C-terminal low-complexity region (Fmr1, Mus musculus, UniProt P35922)
Technique: RNA Bind-n-Seq
Form: RNA
Matrix: in vitro
Tested at: 200 nM
Notes: whole 134-nt RNA, ends assumed
With: 150 mM KCl
Baseline: input library
Reading: higher = stronger binding
Endpoint: log2 enrichment
All sequences stand within: GGGAGUUCUACAGUCCGACGAUC … UGGAAUUCUCGGGUGUCAAGG
Sequence = CUCAAGUCCUGUGCUACACAUCGUAUGUACCGAAUCGGUUUUUGGUUUGGUGGAAAGUAUUAUGUUACGCCGUUCGGAUCUGCACUUCCA; result = -0.411
Sequence = UCAAGUCCUGUGCUACACAUCGUAUGUACCGAAUCGGGUUUGGGUUUGGGUGGGAAAGUAUUAUGUUACGCCGUUCGGAUCUGCACUUCC; result = 1.36
Sequence = CAAGUCCUGUGCUACACAUCGUAUGUACCGAAUCGGUUUGGAAAAAGGUUUUUGGAAAGUAUUAUGUUACGCCGUUCGGAUCUGCACUUC; result = -0.827
Sequence = UUAAGAAUUUGCUUAAAGAAGUGCGGAUCUAUGCACAGAAAUUUAUUGAUCGAGGAAAGGAUUUUAACUUGGAGUUGGCAAUUAAAACAC; result = 0.123
Sequence = UGGCCCUGGUGGCAUGCGGGGAGGAAGAGGUGGCCUCAUGGAUCGUGGUGGUCCCGGUGGAAUGUUCAGAGGUGGCUGUGGUGGAGACAG; result = 0.234
Sequence = GUCCUGUGCUACACAUCGUAUGUACCGAAUCGGGCCCCCCGGCCCCCCGGCCCCCCGGAAAGUAUUAUGUUACGCCGUUCGGAUCUGCAC; result = 0.0264
Sequence = AGUCCUGUGCUACACAUCGUAUGUACCGAAUCGGGGAAAAAGGGGUUUGGGGUGGGGAAAGUAUUAUGUUACGCCGUUCGGAUCUGCACU; result = 0.927
Sequence = UGGCCGUGGUGGCAUGCGGGGAGGAAGAGGUGGCCUCAUGGAUCGUGGUGGUCCCGGUGGAAUGUUCAGAGGUGGCCGUGGUGGAGACAG; result = 0.349
Sequence = UAACUUUAGAGGAGGAUCUGAUGGAUAUGGCAGUGGACGUGGAUUUGGGGAUGGCUAUAAUGGGUAUGGAGGAGGACCUGGAGAUGGCAA; result = 0.265
Sequence = CCUCAAGUCCUGUGCUACACAUCGUAUGUACCGAAUCGGGGAGGGAGGAGGGAAAGUAUUAUGUUACGCCGUUCGGAUCUGCACUUCCAG; result = 1.3
Sequence = UCCUCAAGUCCUGUGCUACACAUCGUAUGUACCGAAUCGGAAAGGAGGAGGAAAGUAUUAUGUUACGCCGUUCGGAUCUGCACUUCCAGC; result = -0.671
Sequence = CCUGUGCUACACAUCGUAUGUACCGAAUCGGGGAAAAAAAGGAAAAAAAGGAAAAAAAGGGAAAGUAUUAUGUUACGCCGUUCGGAUCUG; result = -0.776
Sequence = GUCCUGUGCUACACAUCGUAUGUACCGAAUCGGGUUUUUGGGUUUUUGGGUUUUUGGGAAAGUAUUAUGUUACGCCGUUCGGAUCUGCAC; result = 0.193
Sequence = UGGUAUUCAUGGGUAGUUUGAAAUAUCCAGAUGAGAAUGGAUUUGAUGCCUUCCUGAAGAAGCAUGGGGGUAGUGAUAAUGCCUCAACUG; result = -1.09

Sample 2
Target: human cyclin D1
Effect on: peptide binding
Technique: yeast competitive growth sequencing
Form: peptide
Organism: Saccharomyces cerevisiae
Strain: cyclin D1-Cln2 fusion
Tested at: concentration not given
Notes: peptide tiling library
Baseline: Cln2 fusion control
Reading: direction not given
Endpoint: binding enrichment score
Molecule = SDSTVTKLDFDLEP; result = 0.591
Molecule = IPDRSTKPVVFSPT; result = 1.21
Molecule = ALLRRLQDVANDRGSH; result = 4.21
Molecule = VLLKRLQDVVSERANH; result = 3.95
Molecule = KRCATPVIIDEILPSK; result = 1.47
Molecule = PKNAKRNLSSEFAN; result = 0.586
Molecule = ARKRLELGNLGNPQ; result = -0.64
Molecule = PHKTFRKLRLFDTPHT; result = -0.928
Molecule = GPVKLEFDVSDGAT; result = 0.136
Molecule = EPKTLFLGAGDFQF; result = 1.59
Molecule = RKLDLEGIGR; result = 0.618
Molecule = LFVPQRKLEVSTEDVH; result = -0.384
Molecule = QDYERRLLRQIVIQNE; result = -0.517
Molecule = NCKKRRALDFLSRLPL; result = -0.29
Molecule = TSSAQRRLEIPSGGAD; result = -0.431
Molecule = PPKPLKKLRFDIEGSD; result = -0.8

Sample 3
Target: ABI1, truncated, D143A, DHFR fusion (Arabidopsis thaliana)
Technique: DHFR PCA, deep sequencing
Matrix: yeast
Notes: methotrexate growth selection, single substitutions
With: (+)-ABA 0.39 µM
Baseline: wild-type fitted maximum
Reading: higher = stronger binding
Endpoint: relative binding score
Parent: PYL1, truncated, DHFR fusion (Arabidopsis thaliana); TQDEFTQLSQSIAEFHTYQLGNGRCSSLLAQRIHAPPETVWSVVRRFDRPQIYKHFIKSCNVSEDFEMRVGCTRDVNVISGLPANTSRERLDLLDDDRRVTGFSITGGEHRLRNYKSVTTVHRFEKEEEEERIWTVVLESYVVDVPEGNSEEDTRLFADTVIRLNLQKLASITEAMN; partner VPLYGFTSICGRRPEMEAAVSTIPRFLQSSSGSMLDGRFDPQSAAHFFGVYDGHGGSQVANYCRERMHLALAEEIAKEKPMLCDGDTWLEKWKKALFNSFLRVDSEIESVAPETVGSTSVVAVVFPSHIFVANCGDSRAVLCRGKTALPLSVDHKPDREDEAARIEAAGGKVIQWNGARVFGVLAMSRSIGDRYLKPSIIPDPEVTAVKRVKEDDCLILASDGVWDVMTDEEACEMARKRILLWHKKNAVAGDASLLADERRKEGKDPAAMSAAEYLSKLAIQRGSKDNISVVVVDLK
Variant = E38A; result = 14.1%
Variant = L169D; result = -13.8%
Variant = A158L; result = 51%
Variant = E130F; result = 20.5%
Variant = D92N; result = 10.7%
Variant = S87P; result = 13.8%
Variant = I172E; result = -3.49%
Variant = G23S; result = 13.7%
Variant = Y18L; result = -3.21%
Variant = I52H; result = 12.5%
Variant = S117A; result = 3.36%
Variant = E152R; result = 10.2%
Variant = C72M; result = 44.4%
Variant = V143D; result = 0.458%
Variant = I57A; result = -14.6%
Variant = E109V; result = 8.19%
Variant = A30T; result = 30.6%
Variant = V40H; result = -16.2%
Variant = F56G; result = -5.72%
Variant = L166W; result = 14.2%
Variant = R90A; result = 4.58%
Variant = A30I; result = 30.6%
Variant = G21R; result = 40%

Sample 4
Target: Sal-like protein 4, full length isoform A (SALL4, Homo sapiens, UniProt Q9UJQ4, residues 1-1053)
Chain of UniProt Q9UJQ4 (whole entry, looked up): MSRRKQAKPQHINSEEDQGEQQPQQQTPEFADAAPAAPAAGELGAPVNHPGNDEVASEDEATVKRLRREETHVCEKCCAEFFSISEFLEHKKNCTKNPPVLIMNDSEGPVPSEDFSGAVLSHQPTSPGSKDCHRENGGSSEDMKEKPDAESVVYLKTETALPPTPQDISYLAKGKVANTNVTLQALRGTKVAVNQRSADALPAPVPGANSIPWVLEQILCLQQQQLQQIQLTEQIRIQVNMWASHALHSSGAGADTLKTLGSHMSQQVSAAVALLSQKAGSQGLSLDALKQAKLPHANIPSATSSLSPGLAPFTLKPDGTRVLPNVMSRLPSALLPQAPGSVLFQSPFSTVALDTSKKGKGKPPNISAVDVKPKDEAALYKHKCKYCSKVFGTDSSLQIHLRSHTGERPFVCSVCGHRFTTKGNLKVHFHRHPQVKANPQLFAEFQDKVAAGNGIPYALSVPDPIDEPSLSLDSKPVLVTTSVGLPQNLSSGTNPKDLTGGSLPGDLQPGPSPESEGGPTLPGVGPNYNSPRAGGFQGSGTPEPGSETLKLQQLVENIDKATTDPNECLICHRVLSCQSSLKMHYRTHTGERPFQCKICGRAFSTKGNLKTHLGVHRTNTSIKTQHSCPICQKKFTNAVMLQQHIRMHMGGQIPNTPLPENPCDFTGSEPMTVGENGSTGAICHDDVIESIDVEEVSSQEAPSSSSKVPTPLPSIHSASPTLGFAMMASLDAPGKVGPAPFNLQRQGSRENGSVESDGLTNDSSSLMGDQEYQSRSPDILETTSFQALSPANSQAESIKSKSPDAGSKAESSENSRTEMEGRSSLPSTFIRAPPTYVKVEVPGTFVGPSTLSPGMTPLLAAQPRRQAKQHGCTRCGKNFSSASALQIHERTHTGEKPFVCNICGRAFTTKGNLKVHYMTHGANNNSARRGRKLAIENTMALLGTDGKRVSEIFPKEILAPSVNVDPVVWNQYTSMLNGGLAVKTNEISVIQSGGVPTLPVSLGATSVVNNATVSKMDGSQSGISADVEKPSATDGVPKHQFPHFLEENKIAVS
Technique: universal PBM
Form: double-stranded DNA, one strand shown
Matrix: in vitro
Tested at: 600 nM
Notes: 8-mer, flanks averaged, mean of replicates
Reading: higher = stronger binding
Endpoint: E-score
Sequence = ACAATCTG; result = 0.0378
Sequence = CTCCACAA; result = -0.0202
Sequence = CAACTACA; result = 0.18
Sequence = CCTGAGCG; result = -0.262
Sequence = ATGGGAGA; result = 0.0841
Sequence = CCGCTGAA; result = -0.0976
Sequence = CTGTGGTA; result = 0.0557
Sequence = CTCGCGCC; result = -0.342
Sequence = CGAGGAGC; result = -0.32
Sequence = AAGAGGTC; result = -0.121
Sequence = AAAGTAGA; result = 0.173
Sequence = CGAGTACA; result = 0.0258
Sequence = AACATGTT; result = 0.19
Sequence = CTCCGCGA; result = -0.273
Sequence = CGAGTATC; result = -0.0874
Sequence = GCCGGCGC; result = -0.27
Sequence = TCCCGTCA; result = -0.0509
Sequence = TGACCGAA; result = -0.0833
Sequence = CATGACGG; result = -0.116
Sequence = ACTAAAAA; result = 0.281
Sequence = ACATGGGA; result = -0.0163
Sequence = CGACCGAC; result = -0.301
Sequence = GATGAAAA; result = 0.221
Sequence = AATTACCT; result = 0.267
Sequence = GAGTCCTA; result = -0.0799

Sample 5
Target: RNA binding protein fox-1 homolog 2, RRM domain, GST-SBP tag (RBFOX2, Homo sapiens, UniProt O43251-10, residues 100-194)
Technique: RNA Bind-n-Seq
Form: RNA
Matrix: in vitro
Tested at: 365 nM
Notes: natural RNA segment, single round, ends assumed
Baseline: no-protein control
Reading: higher = stronger binding
Endpoint: RBNS enrichment (R)
All sequences stand within: GGGAGUUCUACAGUCCGACGAUC … UGGAAUUCUCGGGUGCCAA
Construct (chain): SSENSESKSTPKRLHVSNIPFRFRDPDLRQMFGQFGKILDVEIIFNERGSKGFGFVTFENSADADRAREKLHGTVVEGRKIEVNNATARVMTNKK
Sequence = CAGACUGUUAACACCACAGUCCUUAGCAGUGGUCAAUGUCCAGUUCCCCCGCACAGGUCCUGCUUCACUCACAUCCUCACCCGCUGCCAAGGUGGCGGUUUGUGCUUGCA; result = 0.534
Sequence = AUGACCAGGAGACAGCCAGUUUCAAGGGCUGUCUGCCUAGCAGAGGCCAAGUGGUUUGAAGUUAUUUUUAACCACAGAAGAGUUAAUUUUAUACAAAUAAAUGUAAAUGU; result = 0.336
Sequence = UGUGUGAUAACUGCCAAAACCGUAUUUUCUAAGACUAAGCAAAAUAAAUGCAUUACUCUUUGGUAAAGCCUAGUUGUACUCUCACAUUUCUAAACAAGGCUCCUAACUAG; result = 0.578
Sequence = ACUCUUCAGAAACAGACUUCCUCCUCUUUUCCUUUCUCCUCUGCUCCACAGCCUGUGCUCUGUUCAGUUCCCAACACAAUCGACAAUAAACGGUGAUGCCCAUUCGGAAG; result = 0.847
Sequence = UCCCUUGCCCAGAGGACAGACCUCCGGGGCCCAUCUUGGCCCUGGGAAAGGGCUCUCCUCUCUGAUUGGUCCCUAGGCCACGGGCCGGCCCCCAGACACCAUUCACCGAC; result = 0.177
Sequence = GAAGUGUACGCCUAUUAUAUUCCCAAGGCAUUUUUGUGGGGAGGAACAGUGCUGCUUGUUGGCCUUUCCAUAUUCCCUCAUACAAAAAUGCUAAAAUCUAUUCGCAAGAG; result = 0.269
Sequence = GCUGCUUUCACGGCUGUUGUUCAGUGCCUGCGGCUUUUCCAGGUGCACGGUGCAAGCUGUUGGUGGAUCUACCAUUCUGGGGUCUGGAGGACGGUGGCCCUCUUCUCACA; result = 0.406
Sequence = CACUGACCUGCCUGUAGCCCCAGUGACAGCUAGGAUGUGCAUUCUCCAGCCAUCAAGAGACUGAGUCAAGUUGUUCCUUAAGUCAGAACAGCAGACUCAGCUCUGACAUU; result = 1.26
Sequence = ACCGGCCCGCCUCCAUCCAAAAUCACGCUCGCGUGCUUCGGAAGCAUCCGGGUCACUCCUUCUCCGCUUUUUCUUGCAGAUGGGCCUAGGCCGGUGUCGGUUCUGUUUCU; result = 0.263
Sequence = UACACACACACAGGGACAUCAACAAGGGUAGUACACACACUAUACUGAGAACCAAAGCAACCCCAGGUGCAUAAUUGUAUAACUUACAGUCUCCCAUCAAGACUACCUCA; result = 0.367
Sequence = CUUUGUCUCAUGAAACUACCAAAAAAGAAUGUCACCUUUUUUCUUUGUUGUGGAACCAGAGAUUAUAAAAAGGAAAAAAAAGGAAAAAAAAAAGUUGUCUUGUUGUAUUU; result = 3.44
Sequence = AGUGUCAGUGUGGGUAUCAACCUCAAAGUCAGGCACUUGAGCCAUGUGUGGUCCUCCUCCAUCUGGGAUUCAGAAGCCCCUGCCACUGCCUCAGGUCAAGGGGAGGGAGG; result = 0.247

Single results of other studies
Substance = PhoQ, residues 284 288 289 292 302 303 NLMGRA; target = PhoP, residues 12 14 15 18 19 LHHSG (Escherichia coli, UniProt P23836); assay = Sort-seq, item: YFP reporter; test system = E. coli; setting = PhoQ-PhoP variant library, with: 10 µM Mg2+; scale = baseline: high Mg2+ state, higher = stronger signaling; endpoint = fold induction; result = 10.5
